{"data": "Published values pooled from the literature", "note": "Parts stem from different laboratories: compare values within a part only. Substitutions count along the parent as printed."}
{"data": "Series 1", "target": "POU domain, class 5, transcription factor 1, POU domain (Pou5f1, Mus musculus, UniProt P20263, residues 131-289)", "method": "Spec-seq", "form": "double-stranded DNA, one strand shown", "medium": "in vitro", "concentration": "not given", "notes": "whole probe, mean of replicates", "relative to": "not given", "direction": "lower = stronger binding", "shared flanks, not repeated": "GAGTCGTCTCGTCAGCAC … CCGTAGAGCACTCAGGTC", "UniProt P20263, sequence (131-289, looked up)": "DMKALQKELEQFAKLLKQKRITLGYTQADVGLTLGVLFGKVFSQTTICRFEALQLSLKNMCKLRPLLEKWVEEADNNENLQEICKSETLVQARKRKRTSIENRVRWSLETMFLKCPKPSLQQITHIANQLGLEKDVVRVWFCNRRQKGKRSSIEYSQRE"}
{"Oligonucleotide": "ATTTGGAT", "relative binding energy": "0.0637 ln ratio"}
{"Oligonucleotide": "ATCTCCAT", "relative binding energy": "-0.912 ln ratio"}
{"Oligonucleotide": "ATGCATTC", "relative binding energy": "-0.684 ln ratio"}
{"Oligonucleotide": "ATGATCAT", "relative binding energy": "0.426 ln ratio"}
{"Oligonucleotide": "ATGCCCGA", "relative binding energy": "0.603 ln ratio"}
{"Oligonucleotide": "ATTTTTAT", "relative binding energy": "0.308 ln ratio"}
{"Oligonucleotide": "ATGGTCAT", "relative binding energy": "0.657 ln ratio"}
{"Oligonucleotide": "TCGTTAAT", "relative binding energy": "0.267 ln ratio"}
{"Oligonucleotide": "ATACTCAT", "relative binding energy": "0.207 ln ratio"}
{"Oligonucleotide": "CGCGTAAT", "relative binding energy": "0.641 ln ratio"}
{"Oligonucleotide": "AGTCTAAT", "relative binding energy": "0.621 ln ratio"}
{"Oligonucleotide": "GGCATAAT", "relative binding energy": "-0.206 ln ratio"}
{"Oligonucleotide": "ATTCAGAT", "relative binding energy": "-0.236 ln ratio"}
{"data": "Series 2", "target": "PABPC1L2, full length, GST fusion (mouse, UniProt A0ABA7IW68)", "method": "RNAcompete", "form": "RNA", "medium": "in vitro", "concentration": "20 nM", "notes": "7-mer, probes averaged, single round", "relative to": "mean of 7-mers", "direction": "higher = stronger binding", "Residues (chain)": "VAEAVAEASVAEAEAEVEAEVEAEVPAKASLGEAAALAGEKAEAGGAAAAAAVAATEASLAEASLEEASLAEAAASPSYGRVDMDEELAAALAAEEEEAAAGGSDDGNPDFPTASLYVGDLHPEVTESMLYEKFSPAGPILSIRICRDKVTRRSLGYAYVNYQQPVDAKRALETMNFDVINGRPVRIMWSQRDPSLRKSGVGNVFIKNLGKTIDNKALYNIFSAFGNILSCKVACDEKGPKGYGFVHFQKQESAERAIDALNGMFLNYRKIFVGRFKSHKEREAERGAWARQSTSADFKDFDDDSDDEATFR"}
{"Oligonucleotide": "UACAGUA", "7-mer Z-score": -0.104}
{"Oligonucleotide": "GCUUUCU", "7-mer Z-score": -0.356}
{"Oligonucleotide": "CGAAUAA", "7-mer Z-score": 0.635}
{"Oligonucleotide": "CCCAUUU", "7-mer Z-score": -0.246}
{"Oligonucleotide": "AUAGUUA", "7-mer Z-score": -0.195}
{"Oligonucleotide": "CUCUAAU", "7-mer Z-score": -0.22}
{"Oligonucleotide": "GUCUAAC", "7-mer Z-score": -0.347}
{"Oligonucleotide": "GGUUUCC", "7-mer Z-score": -0.378}
{"Oligonucleotide": "CGACUAC", "7-mer Z-score": -0.162}
{"Oligonucleotide": "AGCAGAG", "7-mer Z-score": -0.0246}
{"Oligonucleotide": "UGAGGUG", "7-mer Z-score": 0.0841}
{"Oligonucleotide": "AGCGCCG", "7-mer Z-score": -0.231}
{"Oligonucleotide": "ACUAGAG", "7-mer Z-score": -0.0772}
{"Oligonucleotide": "CCAAACC", "7-mer Z-score": -0.142}
{"Oligonucleotide": "AGACCCA", "7-mer Z-score": -0.237}
{"Oligonucleotide": "GGGUGGU", "7-mer Z-score": -0.00289}
{"Oligonucleotide": "AGCAUGG", "7-mer Z-score": -0.0554}
{"data": "Series 3", "target": "CCNB2, cyclin fold, Cln2 fusion (human)", "method": "yeast growth competition, sequencing", "medium": "yeast", "notes": "weak parent motif", "relative to": "not given", "direction": "higher = stronger binding", "parent": "E2F3 docking peptide (human); PPAKRRLELGESG"}
{"Variant": "G13A", "normalised enrichment score": 0.0521}
{"Variant": "R5K", "normalised enrichment score": -0.048}
{"Variant": "S12A", "normalised enrichment score": 0.573}
{"Variant": "P1A", "normalised enrichment score": 0.517}
{"Variant": "E8A", "normalised enrichment score": -0.132}
{"Variant": "G10A", "normalised enrichment score": 0.413}
{"Variant": "R6A", "normalised enrichment score": -0.0752}
{"data": "Mixed results"}
{"Substance": "PhoQ, residues 284 288 289 292 302 303 ASVMEA", "target": "PhoP, residues 12 14 15 18 19 LHATL (Escherichia coli, UniProt P23836)", "assay": "Sort-seq, refers to: YFP reporter", "system": "E. coli", "conditions": "PhoQ-PhoP variant library, with: 10 µM Mg2+", "scale": "relative to: high Mg2+ state, higher = stronger signaling", "quantity": "fold induction", "value": 32.8}
{"note": "Repeated from above (mixed results):"}
{"Substance": "PhoQ, residues 284 288 289 292 302 303 ASVMEA", "target": "PhoP, residues 12 14 15 18 19 LHATL (Escherichia coli, UniProt P23836)", "assay": "Sort-seq, refers to: YFP reporter", "system": "E. coli", "conditions": "PhoQ-PhoP variant library, with: 10 µM Mg2+", "scale": "relative to: high Mg2+ state, higher = stronger signaling", "quantity": "fold induction", "value": 32.8}
